{"data": "Measurements of several laboratories", "note": "Compare with care: the assays were run in different laboratories."}
{"Molecule": "NVLFSTVFPPTSFGP", "tested on": "human CD4 T cells", "assay": "AIM", "test system": "peptide", "quantity": "responding donors", "result": "7%"}
{"Molecule": "O=C(Nc1cc(C(F)(F)F)ccc1N1CCCCC1)c1ccncc1", "tested on": "Replicase polyprotein 1ab, main protease (rep, Severe acute respiratory syndrome coronavirus 2, UniProt P0DTD1)", "assay": "reporter gene (Gaussia luciferase), inhibitor", "conditions": "20 µM", "quantity": "inhibition", "result": "3%"}
{"Molecule": "FGLVAEWFLAYILFT", "tested on": "human CD4 T cells", "assay": "AIM", "test system": "peptide", "quantity": "responding donors", "result": "8%"}
{"Molecule": "Nc1ncnc2c([C@@H]3N[C@H](CO)[C@@H](O)[C@H]3O)c[nH]c12", "tested on": "Marburg virus", "assay": "viral replication, antibody staining", "test system": "HeLa, Musoke", "conditions": "50 µM, 1 h", "quantity": "infected cells", "result": "0.8%"}
{"Molecule": "CC[C@H](C)[C@H](NC(=O)[C@H](CC(C)C)NC(=O)[C@H](Cc1c[nH]c2ccccc12)NC(=O)[C@H](CCC(N)=O)NC(=O)[C@@H](NC(=O)[C@H](Cc1ccccc1)NC(=O)[C@H](C)NC(=O)[C@H](CCCCNC(=O)COCCOCCNC(=O)COCCOCCNC(=O)CC[C@H](NC(=O)CCCCCCCCCCCCCCCCCCC(=O)O)C(=O)O)NC(=O)[C@H](CCC(N)=O)NC(=O)[C@H](C)NC(=O)[C@@H](NC(=O)[C@H](CCCCN)NC(=O)[C@H](CC(=O)O)NC(=O)[C@H](CC(C)C)NC(=O)C(C)(C)NC(=O)[C@@H](NC(=O)[C@H](CO)NC(=O)[C@H](Cc1ccc(O)cc1)NC(=O)[C@H](CC(=O)O)NC(=O)[C@H](CO)NC(=O)[C@@H](NC(=O)[C@H](Cc1ccccc1)NC(=O)[C@@H](NC(=O)CNC(=O)[C@H](CCC(=O)O)NC(=O)C(C)(C)NC(=O)[C@@H](N)Cc1ccc(O)cc1)[C@@H](C)O)[C@@H](C)O)[C@@H](C)CC)[C@@H](C)CC)C(C)C)C(=O)N[C@@H](C)C(=O)NCC(=O)NCC(=O)N1CCC[C@H]1C(=O)N[C@@H](CO)C(=O)N[C@@H](CO)C(=O)NCC(=O)N[C@@H](C)C(=O)N1CCC[C@H]1C(=O)N1CCC[C@H]1C(=O)N1CCC[C@H]1C(=O)N[C@@H](CO)C(N)=O", "test system": "healthy human", "conditions": "5.0 mg, single ascending dose", "quantity": "serious adverse events", "result": "0%"}
{"note": "For quick reference, copied from above:"}
{"Molecule": "O=C(Nc1cc(C(F)(F)F)ccc1N1CCCCC1)c1ccncc1", "tested on": "Replicase polyprotein 1ab, main protease (rep, Severe acute respiratory syndrome coronavirus 2, UniProt P0DTD1)", "assay": "reporter gene (Gaussia luciferase), inhibitor", "conditions": "20 µM", "quantity": "inhibition", "result": "3%"}
